Results pooled from the literature.
Every numbered part comes from another study and shows a few of its results, in no order. Values joined by “and” are separate records of one study, mostly repeats; a detail may differ. Substitutions count along the parent as printed.

Block 1
Target: HLA class I histocompatibility antigen, A alpha chain, allele A*26:03 (Homo sapiens, UniProt P04439)
Read-out: peptide-MHC binding
Form: peptide
Concentration: concentration not given
Sequence	binding
EIIWPDRQM	inactive
GELRKAICL	inactive
KRFYQTVGF	inactive
DFGYATMAK	inactive
RMIESRMSK	inactive
KSLFNTVATLY	inactive
VYSFDESSF	inactive
ETRYSWAIL	inactive

Block 2
Target: CCND3, cyclin fold, Cln2 fusion (human)
Technique: yeast growth competition, sequencing
Medium: yeast
Notes: weak parent motif
Relative to: not given
Direction: higher = stronger binding
Starting sequence: viral docking peptide; YKVKRRLVFGADD
Substitution	normalised enrichment score
A11E	0.563
K2C	0.117
R5Q	0.121
L7K	-0.178
D12C	0.14
V8Y	0.286
G10L	0.0236
D12G	0.305

Other studies, line by line
Molecule	organism	assay	test system	conditions	how to read	measurement	value
COCCc1ccc(OCC(O)CNC(C)C)cc1.COCCc1ccc(OCC(O)CNC(C)C)cc1.O=C(O)CCC(=O)O (stereo not drawn)	Vesicular stomatitis virus	pseudovirus infection	–	concentration not given, VSV-G control pseudotype	relative to: vehicle	GFP-positive cells	96%
meglumine antimoniate	Leishmania infantum chagasi	–	MHOM/BR/1972/BH46, golden hamster chronic infection, spleen	intraperitoneal, 50 mg/kg/day, 10 days	–	parasite load	43000 amastigotes/g tissue and 7660 amastigotes/g tissue and 49 amastigotes/g tissue and 114 amastigotes/g tissue and 10000 amastigotes/g tissue

For quick reference, copied from above (block 1):
Sequence	binding
EIIWPDRQM	inactive
RMIESRMSK	inactive
